Assay results of several laboratories.
Parts stem from different laboratories: compare values within a part only.
Sequence of UniProt P10721 (whole entry, unmodified, looked up): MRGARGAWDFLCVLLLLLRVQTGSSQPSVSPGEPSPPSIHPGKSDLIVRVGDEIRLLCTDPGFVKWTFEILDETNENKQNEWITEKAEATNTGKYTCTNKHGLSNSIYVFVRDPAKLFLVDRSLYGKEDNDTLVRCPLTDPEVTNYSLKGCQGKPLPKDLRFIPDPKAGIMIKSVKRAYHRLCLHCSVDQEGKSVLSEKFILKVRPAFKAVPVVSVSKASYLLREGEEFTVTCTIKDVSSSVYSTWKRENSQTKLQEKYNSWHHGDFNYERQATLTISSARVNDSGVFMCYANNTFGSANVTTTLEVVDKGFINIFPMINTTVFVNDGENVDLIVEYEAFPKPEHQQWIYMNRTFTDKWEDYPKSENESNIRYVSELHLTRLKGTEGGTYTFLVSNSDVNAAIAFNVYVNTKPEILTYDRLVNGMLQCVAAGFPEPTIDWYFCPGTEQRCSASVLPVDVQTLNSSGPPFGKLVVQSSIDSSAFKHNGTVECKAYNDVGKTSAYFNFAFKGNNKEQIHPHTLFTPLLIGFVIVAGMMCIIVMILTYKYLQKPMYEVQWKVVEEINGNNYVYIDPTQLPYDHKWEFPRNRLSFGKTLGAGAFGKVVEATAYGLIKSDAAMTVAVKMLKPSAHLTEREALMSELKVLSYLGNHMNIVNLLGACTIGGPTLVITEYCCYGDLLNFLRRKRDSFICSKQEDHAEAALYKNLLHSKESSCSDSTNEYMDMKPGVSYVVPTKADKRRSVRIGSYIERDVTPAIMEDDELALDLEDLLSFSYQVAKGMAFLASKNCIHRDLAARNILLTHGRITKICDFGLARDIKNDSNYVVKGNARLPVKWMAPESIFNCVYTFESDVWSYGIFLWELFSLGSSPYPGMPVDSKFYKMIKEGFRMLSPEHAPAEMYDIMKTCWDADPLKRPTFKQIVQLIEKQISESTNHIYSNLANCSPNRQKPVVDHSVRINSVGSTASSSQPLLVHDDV
Sequence of UniProt P22607 (whole entry, unmodified, looked up): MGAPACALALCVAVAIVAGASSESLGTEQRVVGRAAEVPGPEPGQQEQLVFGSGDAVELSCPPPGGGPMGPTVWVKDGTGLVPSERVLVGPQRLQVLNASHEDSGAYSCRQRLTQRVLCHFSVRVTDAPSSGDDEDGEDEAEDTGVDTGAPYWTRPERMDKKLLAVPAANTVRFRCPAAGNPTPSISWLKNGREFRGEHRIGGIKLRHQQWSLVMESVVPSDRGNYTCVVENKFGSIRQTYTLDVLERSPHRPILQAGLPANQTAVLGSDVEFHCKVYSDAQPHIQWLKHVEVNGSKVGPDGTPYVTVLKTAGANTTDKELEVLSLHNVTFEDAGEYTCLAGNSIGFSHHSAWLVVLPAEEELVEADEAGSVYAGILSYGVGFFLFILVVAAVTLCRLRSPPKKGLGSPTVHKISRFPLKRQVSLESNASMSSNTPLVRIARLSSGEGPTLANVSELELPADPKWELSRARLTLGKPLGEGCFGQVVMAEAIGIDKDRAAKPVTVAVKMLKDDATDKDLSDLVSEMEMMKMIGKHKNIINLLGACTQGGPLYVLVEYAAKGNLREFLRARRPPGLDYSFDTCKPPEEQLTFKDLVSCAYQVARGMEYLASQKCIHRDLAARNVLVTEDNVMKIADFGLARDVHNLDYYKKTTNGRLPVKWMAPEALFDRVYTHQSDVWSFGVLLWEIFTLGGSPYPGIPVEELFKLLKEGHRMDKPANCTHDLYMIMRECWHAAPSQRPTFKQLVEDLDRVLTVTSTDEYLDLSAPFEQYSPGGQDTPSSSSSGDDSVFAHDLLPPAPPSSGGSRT
Sequence of UniProt Q99640 (whole entry, looked up): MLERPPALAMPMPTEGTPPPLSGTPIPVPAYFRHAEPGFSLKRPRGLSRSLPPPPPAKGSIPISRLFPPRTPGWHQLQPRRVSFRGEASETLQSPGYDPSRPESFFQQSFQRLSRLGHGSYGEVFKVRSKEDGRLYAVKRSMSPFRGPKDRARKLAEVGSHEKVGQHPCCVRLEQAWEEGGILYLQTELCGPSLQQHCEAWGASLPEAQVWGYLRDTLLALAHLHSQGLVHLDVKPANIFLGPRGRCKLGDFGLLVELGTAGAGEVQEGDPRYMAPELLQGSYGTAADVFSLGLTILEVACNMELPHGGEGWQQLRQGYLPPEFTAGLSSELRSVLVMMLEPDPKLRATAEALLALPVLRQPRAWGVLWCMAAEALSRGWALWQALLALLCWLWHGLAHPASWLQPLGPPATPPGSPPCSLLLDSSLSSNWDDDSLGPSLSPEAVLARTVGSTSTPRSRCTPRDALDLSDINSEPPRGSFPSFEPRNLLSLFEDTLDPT
Sequence of UniProt P42336 (whole entry, unmodified, looked up): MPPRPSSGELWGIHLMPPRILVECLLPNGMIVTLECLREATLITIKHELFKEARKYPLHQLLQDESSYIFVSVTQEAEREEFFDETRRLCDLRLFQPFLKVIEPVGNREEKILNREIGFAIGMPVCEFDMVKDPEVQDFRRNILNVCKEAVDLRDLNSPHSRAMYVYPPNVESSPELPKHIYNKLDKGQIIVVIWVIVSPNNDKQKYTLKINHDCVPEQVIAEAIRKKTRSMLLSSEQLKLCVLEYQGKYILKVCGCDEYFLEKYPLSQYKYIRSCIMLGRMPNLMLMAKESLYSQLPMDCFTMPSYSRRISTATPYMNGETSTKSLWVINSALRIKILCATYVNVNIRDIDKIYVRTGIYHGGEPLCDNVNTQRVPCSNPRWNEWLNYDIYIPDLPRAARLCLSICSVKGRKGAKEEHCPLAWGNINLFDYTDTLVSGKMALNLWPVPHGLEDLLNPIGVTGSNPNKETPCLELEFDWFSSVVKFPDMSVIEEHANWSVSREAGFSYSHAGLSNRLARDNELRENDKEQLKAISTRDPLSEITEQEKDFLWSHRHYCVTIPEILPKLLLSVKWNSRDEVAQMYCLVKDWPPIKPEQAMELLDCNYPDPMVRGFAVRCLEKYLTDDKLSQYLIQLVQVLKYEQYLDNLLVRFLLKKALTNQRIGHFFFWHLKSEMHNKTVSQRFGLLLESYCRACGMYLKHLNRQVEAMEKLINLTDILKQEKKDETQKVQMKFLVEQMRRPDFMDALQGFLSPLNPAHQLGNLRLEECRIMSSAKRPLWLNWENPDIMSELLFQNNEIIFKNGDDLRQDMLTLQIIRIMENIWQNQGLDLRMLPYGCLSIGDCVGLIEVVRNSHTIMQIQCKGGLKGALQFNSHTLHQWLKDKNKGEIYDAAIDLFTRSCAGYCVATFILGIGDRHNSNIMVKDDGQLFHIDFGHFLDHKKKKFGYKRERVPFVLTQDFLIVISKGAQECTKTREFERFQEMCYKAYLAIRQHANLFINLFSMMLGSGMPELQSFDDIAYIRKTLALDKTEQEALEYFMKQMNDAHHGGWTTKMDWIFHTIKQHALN
Sequence of UniProt Q96PF2 (whole entry, looked up): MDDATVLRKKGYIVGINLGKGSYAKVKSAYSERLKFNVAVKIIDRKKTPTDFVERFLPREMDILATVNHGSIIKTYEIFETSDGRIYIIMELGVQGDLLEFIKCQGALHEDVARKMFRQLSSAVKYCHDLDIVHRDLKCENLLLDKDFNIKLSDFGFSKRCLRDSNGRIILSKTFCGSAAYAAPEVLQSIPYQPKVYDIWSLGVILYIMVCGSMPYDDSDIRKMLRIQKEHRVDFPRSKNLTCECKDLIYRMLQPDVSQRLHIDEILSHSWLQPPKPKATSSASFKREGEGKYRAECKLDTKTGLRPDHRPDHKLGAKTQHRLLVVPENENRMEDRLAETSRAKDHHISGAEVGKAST
Sequence of UniProt Q13554 (whole entry, looked up): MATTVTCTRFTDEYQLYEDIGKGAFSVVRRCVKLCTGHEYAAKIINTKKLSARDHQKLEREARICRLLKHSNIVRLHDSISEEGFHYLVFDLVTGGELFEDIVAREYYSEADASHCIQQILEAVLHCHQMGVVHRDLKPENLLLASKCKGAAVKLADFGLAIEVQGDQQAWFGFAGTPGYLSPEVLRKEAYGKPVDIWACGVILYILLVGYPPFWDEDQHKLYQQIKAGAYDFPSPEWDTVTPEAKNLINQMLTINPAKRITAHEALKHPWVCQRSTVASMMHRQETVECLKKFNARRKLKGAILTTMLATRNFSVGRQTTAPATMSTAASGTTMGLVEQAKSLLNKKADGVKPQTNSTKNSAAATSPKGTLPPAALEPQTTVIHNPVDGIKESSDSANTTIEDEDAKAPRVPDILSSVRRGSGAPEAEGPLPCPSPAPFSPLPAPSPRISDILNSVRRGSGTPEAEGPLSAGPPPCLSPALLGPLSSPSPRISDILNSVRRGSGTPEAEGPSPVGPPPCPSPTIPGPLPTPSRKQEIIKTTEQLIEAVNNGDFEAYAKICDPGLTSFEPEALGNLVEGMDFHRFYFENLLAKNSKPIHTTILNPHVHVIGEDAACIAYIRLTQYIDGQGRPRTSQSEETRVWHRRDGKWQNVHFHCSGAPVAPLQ
Sequence of UniProt P36896 (whole entry, looked up): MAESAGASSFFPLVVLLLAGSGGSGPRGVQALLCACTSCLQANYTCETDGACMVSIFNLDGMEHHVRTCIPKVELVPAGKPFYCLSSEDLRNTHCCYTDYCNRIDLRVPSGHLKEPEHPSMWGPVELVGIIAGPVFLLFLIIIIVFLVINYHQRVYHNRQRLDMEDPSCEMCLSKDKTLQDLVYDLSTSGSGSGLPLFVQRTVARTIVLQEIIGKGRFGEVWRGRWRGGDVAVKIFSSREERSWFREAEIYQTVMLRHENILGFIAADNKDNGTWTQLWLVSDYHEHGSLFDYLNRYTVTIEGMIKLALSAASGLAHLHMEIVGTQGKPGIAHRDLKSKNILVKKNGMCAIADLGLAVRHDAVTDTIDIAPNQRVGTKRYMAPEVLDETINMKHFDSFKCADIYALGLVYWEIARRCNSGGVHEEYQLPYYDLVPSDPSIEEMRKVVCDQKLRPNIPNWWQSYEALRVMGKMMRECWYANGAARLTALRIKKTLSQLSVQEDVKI

Series 1
Compound: COc1ccc2[nH]c3c4[nH]c5ccc(OC)cc5c4c4c(c3c2c1)C(=O)NC4=O
Observed: binding
Concentration: 1 µM
Quantity: remaining binding
Phosphatidylinositol 4,5-bisphosphate 3-kinase catalytic subunit alpha isoform (PIK3CA, Homo sapiens, UniProt P42336, E545A): 100%
Phosphorylase b kinase gamma catalytic chain, liver/testis isoform (PHKG2, Homo sapiens, UniProt P15735): 52%
Phosphatidylinositol 4,5-bisphosphate 3-kinase catalytic subunit alpha isoform (PIK3CA, Homo sapiens, UniProt P42336, H1047Y): 89%
Fibroblast growth factor receptor 3 (FGFR3, Homo sapiens, UniProt P22607); competition with immobilised ligand: 93%
STE20/SPS1-related proline-alanine-rich protein kinase (STK39, Homo sapiens, UniProt Q9UEW8): 100%
G protein-coupled receptor kinase 3 (GRK3, Homo sapiens, UniProt P35626): 70%
Aurora kinase B (AURKB, Homo sapiens, UniProt Q96GD4); competition with immobilised ligand: 16%
Mitogen-activated protein kinase kinase kinase 7 (MAP3K7, Homo sapiens, UniProt O43318); competition with immobilised ligand: 20%
Activin receptor type-1B (ACVR1B, Homo sapiens, UniProt P36896); competition with immobilised ligand: 100%
Mast/stem cell growth factor receptor Kit (KIT, Homo sapiens, UniProt P10721, L576P): 8.2%
Tyrosine-protein kinase CSK (CSK, Homo sapiens, UniProt P41240); competition with immobilised ligand: 95%
Mitogen-activated protein kinase kinase kinase kinase 2 (MAP4K2, Homo sapiens, UniProt Q12851); competition with immobilised ligand: 75%
Glycogen synthase kinase-3 beta (GSK3B, Homo sapiens, UniProt P49841): 68%
Membrane-associated tyrosine- and threonine-specific cdc2-inhibitory kinase (PKMYT1, Homo sapiens, UniProt Q99640); competition with immobilised ligand: 97%
Dual specificity protein kinase CLK3 (CLK3, Homo sapiens, UniProt P49761): 79%
Serine/threonine-protein kinase 33 (STK33, Homo sapiens, UniProt Q9BYT3); competition with immobilised ligand: 33%
Dual specificity protein kinase CLK1 (CLK1, Homo sapiens, UniProt P49759); competition with immobilised ligand: 80%

Series 2
Target: Diamine acetyltransferase 1 (Homo sapiens, UniProt P21673)
Action: inhibitor
Concentration: 10 µM
Reference: control
Quantity: remaining activity
Construct (P21673 1-171): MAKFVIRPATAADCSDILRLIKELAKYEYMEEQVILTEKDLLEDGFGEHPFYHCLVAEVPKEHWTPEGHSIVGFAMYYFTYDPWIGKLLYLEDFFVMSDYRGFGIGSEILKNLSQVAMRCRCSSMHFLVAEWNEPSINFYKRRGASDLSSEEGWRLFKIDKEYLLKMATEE
C[C@@H](N)C(=O)O: 102%
COc1cc2cc(Oc3ccc4ccc(=O)oc4c3)c(=O)oc2cc1O: 85.6%
CCCCCCCCCCCCCCCCCCCCCCC(=O)OC: 90.5%
C[C@H]1[C@@H](O)CC[C@@H]2[C@]1(C)CC[C@H]1[C@@]2(C)CC[C@@]2(C)[C@@H]3CC(C)(C)CC[C@]3(C)CC[C@]12C: 98.6%
COc1ccc(C[C@@H]2c3cc(Oc4cc(C[C@@H]5c6cc(O)c(OC)cc6CCN5C)ccc4O)c(OC)cc3CCN2C)cc1: 102%
COc1ccc2c(c1)O[C@H]1c3ccc(O)cc3OC[C@@H]21: 96.6%
O=C(/C=C/c1ccc(O)c(O)c1)O[C@@H]1C[C@](O)(C(=O)O)C[C@@H](O)[C@H]1O: 93.5%
C[C@@H]1CC[C@@]2(OC1)O[C@H]1C[C@H]3[C@@H]4CC=C5C[C@@H](O[C@@H]6O[C@H](CO)[C@@H](O)[C@H](O)[C@H]6O[C@@H]6O[C@@H](C)[C@H](O)[C@@H](O)[C@H]6O)CC[C@]5(C)[C@H]4CC[C@]3(C)[C@@]1(O)[C@@H]2C: 85.7%
CCCCCCCCCCCCCCCCCCCC(=O)O: 95.9%
C[C@@]12C[C@@]3(O)O[C@@H](O1)[C@]1(COC(=O)c4ccccc4)[C@H]3C[C@@]12O[C@@H]1O[C@H](COC(=O)c2ccccc2)[C@@H](O)[C@H](O)[C@H]1O: 108%
O=C(/C=C/c1ccc(O)c2c1[C@H](C(=O)O)[C@@H](c1ccc(O)c(O)c1)O2)O[C@H](Cc1ccc(O)c(O)c1)C(=O)O: 72%
CCCCC/C=C\C/C=C\CCCCCCCC(=O)O: 89.4%
O=c1c(-c2ccc(O)cc2)coc2cc(O[C@@H]3O[C@H](CO)[C@@H](O)[C@H](O)[C@H]3O)ccc12: 76%
O=c1ccc2cc(O)ccc2o1: 100%

Series 3
SMILES: CCc1[nH]c(-c2ccc(OC)cc2)nc1-c1ccncc1
Observed: enzyme activity
Action: inhibitor
Concentration: 0.5 µM
Reference: control
Quantity: remaining activity
Phosphorylase b kinase gamma catalytic chain, skeletal muscle/heart isoform (PHKG1, Homo sapiens, UniProt Q16816): 97%
Serine/threonine-protein kinase 16 (STK16, Homo sapiens, UniProt O75716): 108%
Ribosomal protein S6 kinase alpha-6 (RPS6KA6, Homo sapiens, UniProt Q9UK32): 111%
Cyclin-dependent kinase 1, with cyclin B (CDK1, Homo sapiens, UniProt P06493): 102%
Tyrosine-protein kinase Srms (SRMS, Homo sapiens, UniProt Q9H3Y6): 106%
Serine/threonine-protein kinase 17A (STK17A, Homo sapiens, UniProt Q9UEE5): 96.1%
cAMP-dependent protein kinase catalytic subunit gamma (PRKACG, Homo sapiens, UniProt P22612): 103%
3-phosphoinositide-dependent protein kinase 1 (PDPK1, Homo sapiens, UniProt O15530): 96%
Ephrin type-B receptor 1 (EPHB1, Homo sapiens, UniProt P54762): 104%
Dual specificity tyrosine-phosphorylation-regulated kinase 3 (DYRK3, Homo sapiens, UniProt O43781): 95.5%
Ephrin type-B receptor 4 (EPHB4, Homo sapiens, UniProt P54760): 90.3%
Ribosomal protein S6 kinase alpha-5 (RPS6KA5, Homo sapiens, UniProt O75582): 107%
Tyrosine-protein kinase Blk (BLK, Homo sapiens, UniProt P51451): 105%
Cyclin-dependent kinase 4, with cyclin D3 (CDK4, Homo sapiens, UniProt P11802): 105%
Ephrin type-A receptor 4 (EPHA4, Homo sapiens, UniProt P54764): 105%
MAP kinase-activated protein kinase 3 (MAPKAPK3, Homo sapiens, UniProt Q16644): 102%
Calcium/calmodulin-dependent protein kinase type II subunit beta (CAMK2B, Homo sapiens, UniProt Q13554): 97.1%
Tyrosine-protein kinase receptor UFO (AXL, Homo sapiens, UniProt P30530): 99.9%
Homeodomain-interacting protein kinase 4 (HIPK4, Homo sapiens, UniProt Q8NE63): 90%
Mitogen-activated protein kinase kinase kinase kinase 4 (MAP4K4, Homo sapiens, UniProt O95819): 91.9%
Serine/threonine-protein kinase WNK3 (WNK3, Homo sapiens, UniProt Q9BYP7): 97.3%
Testis-specific serine/threonine-protein kinase 2 (TSSK2, Homo sapiens, UniProt Q96PF2): 98.7%
Homeodomain-interacting protein kinase 2 (HIPK2, Homo sapiens, UniProt Q9H2X6): 93.6%

Series 4
Compound: O=C(NCc1ncc(C(F)(F)F)cc1Cl)c1ccc2c(c1)C1(CCS(=O)(=O)CC1)[C@@H](C1CC1)N2S(=O)(=O)c1ccc(F)cc1
Technique: competition with immobilised ligand
Concentration: 1 µM
Quantity: remaining binding
Ribosomal protein S6 kinase alpha-2, C-terminal kinase domain (RPS6KA2, Homo sapiens, UniProt Q15349); cell-free assay: 100%
Serine/threonine-protein kinase RIO3 (RIOK3, Homo sapiens, UniProt O14730); cell-free assay: 72%
Platelet-derived growth factor receptor alpha (PDGFRA, Homo sapiens, UniProt P16234); cell-free assay: 87%
Serine/threonine-protein kinase STK11 (STK11, Homo sapiens, UniProt Q15831); cell-free assay: 100%
Tyrosine-protein kinase ABL1, phosphorylated (ABL1, Homo sapiens, UniProt P00519, Q252H); cell-free assay: 87%
Receptor-type tyrosine-protein kinase FLT3 (FLT3, Homo sapiens, UniProt P36888, N841I); cell-free assay: 78%
Calcium/calmodulin-dependent protein kinase type II subunit alpha (CAMK2A, Homo sapiens, UniProt Q9UQM7); cell-free assay: 90%
Casein kinase I isoform gamma-1 (CSNK1G1, Homo sapiens, UniProt Q9HCP0); cell-free assay: 90%
Tyrosine-protein kinase receptor Tie-1 (TIE1, Homo sapiens, UniProt P35590); cell-free assay: 95%
Serine/threonine-protein kinase Chk1 (CHEK1, Homo sapiens, UniProt O14757); cell-free assay: 100%
Tyrosine-protein kinase ABL1, phosphorylated (ABL1, Homo sapiens, UniProt P00519, E255K); binding: 100%
MAP kinase-activated protein kinase 2 (MAPKAPK2, Homo sapiens, UniProt P49137); cell-free assay: 100%
Beta-adrenergic receptor kinase 1 (GRK2, Homo sapiens, UniProt P25098); cell-free assay: 80%
Membrane-associated tyrosine- and threonine-specific cdc2-inhibitory kinase (PKMYT1, Homo sapiens, UniProt Q99640); cell-free assay: 92%
Ankyrin repeat and protein kinase domain-containing protein 1 (ANKK1, Homo sapiens, UniProt Q8NFD2); cell-free assay: 76%
Mast/stem cell growth factor receptor Kit (KIT, Homo sapiens, UniProt P10721); cell-free assay: 82%
Serine/threonine-protein kinase MRCK beta (CDC42BPB, Homo sapiens, UniProt Q9Y5S2); cell-free assay: 100%
Testis-specific serine/threonine-protein kinase 1 (TSSK1B, Homo sapiens, UniProt Q9BXA7); cell-free assay: 100%
Fibroblast growth factor receptor 3 (FGFR3, Homo sapiens, UniProt P22607, G697C); cell-free assay: 80%
Receptor-type tyrosine-protein kinase FLT3 (FLT3, Homo sapiens, UniProt P36888, D835H); cell-free assay: 100%

Some of these lines once more (series 3):
Serine/threonine-protein kinase 16 (STK16, Homo sapiens, UniProt O75716): 108%
Ribosomal protein S6 kinase alpha-6 (RPS6KA6, Homo sapiens, UniProt Q9UK32): 111%
Cyclin-dependent kinase 1, with cyclin B (CDK1, Homo sapiens, UniProt P06493): 102%
Tyrosine-protein kinase Srms (SRMS, Homo sapiens, UniProt Q9H3Y6): 106%
Serine/threonine-protein kinase 17A (STK17A, Homo sapiens, UniProt Q9UEE5): 96.1%
